Assay results pooled from the literature.
Compare with care: the assays were run in different laboratories.
Target: Muscarinic acetylcholine receptor M1 (CHRM1, Homo sapiens, UniProt P11229)

SMILES = Cc1cc(Nc2nc(C[C@@]3(C(=O)O)CCN(Cc4cccc(Cl)c4F)[C@H](C)C3)cc(C)c2F)[nH]n1; test = inhibitor; setting = 10 µM; quantity = inhibition; result = 10.1%
SMILES = Cc1cc(-c2ccc3ccccc3c2)nnc1NCCN1CCN(C)CC1; test = antagonist; setting = 10000 nM; how to read = reference: control; quantity = activity; result = 0%
SMILES = CCOC(=O)[C@](CC)(CCCSCCOCCOCCNC(=O)c1ccc(-c2c3ccc(=N)c(S(=O)(=O)O)c-3oc3c(S(=O)(=O)O)c(N)ccc23)c(C(=O)O)c1)NC(=O)c1ccc(C2CC2)c(Cc2ccc(F)cc2)n1; test = ligand displacement, radioligand; setting = 10 µM; quantity = inhibition; result = -5%
SMILES = Cc1sc2c(c1C)C(c1ccc(Cl)cc1)=NC(CC(=O)OC(C)(C)C)c1nnc(C)n1-2 (stereo not drawn); test = radioligand binding; setting = 1 µM; quantity = specific binding; result = 114%
SMILES = C/C(=N\OCCCN1CCCCC1)c1ccc(C(F)(F)F)cc1; test = agonist, IP-One; setting = 10 µM; quantity = activation; result = 0.38%
SMILES = CCN(CC)CCOc1ccc(-c2nnn(Cc3ccc(OC)cc3)c2N)cc1; test = radioligand binding; system = HEK293; setting = 10 µM, safety profiling; quantity = inhibition; result = 11.2%
SMILES = COc1ccc(F)cc1S(=O)(=O)Nc1cnc2c(c1)C(=O)NCCO2; test = ligand displacement, radioligand; setting = 10 µM; quantity = inhibition; result = 1%
SMILES = C[C@H](NCc1ccc(-c2ccc(C(F)(F)F)cc2)cc1)C(N)=O; test = radioligand binding; setting = 1 µM, together with: [3H]N-methylscopolamine 0.80 nM; quantity = inhibition of binding; result = -3%
SMILES = CCO[C@H]1[C@H](O)[C@@H](N)[C@@H](O[C@H]2[C@H](O[C@@H]3O[C@H](CO)[C@@H](O[C@H]4O[C@@H](CN)[C@@H](O)[C@H](O)[C@H]4N)[C@H]3O)[C@@H](O)[C@H](N)C[C@@H]2N)O[C@@H]1CO; test = radioligand binding; setting = 10 µM, 1% DMSO; quantity = specific binding; result = 5%
SMILES = CCc1nnc(-c2c(OC)cc(-c3cnc4cc(-c5cnn(C)c5)ccn34)cc2OC)o1; test = antagonist radioligand, radioligand binding; setting = 10 µM, SafetyScreen44 M1 mean; how to read = lower = stronger displacement; quantity = remaining binding; result = 96.2%
SMILES = N[C@H](C(=O)N1CCCC1)C1CCN(c2nccc3c(-c4ncc(Cl)cc4Cl)cccc23)CC1; test = functional response, agonist; setting = 10 µM; quantity = response; result = 4%
SMILES = CN[C@@H]1[C@H](O)[C@H](NC)[C@H]2O[C@]3(O)[C@H](O[C@@H]2[C@H]1O)O[C@H](C)C[C@H]3NC(=O)Cc1ccc(Cl)cn1; test = ligand displacement, radioligand; setting = 10 µM; quantity = inhibition; result = 1%

Repeated from above:
SMILES = C/C(=N\OCCCN1CCCCC1)c1ccc(C(F)(F)F)cc1; test = agonist, IP-One; setting = 10 µM; quantity = activation; result = 0.38%
